Assay results from different studies.
A part holds a random share of what one study measured. Changes are numbered by the printed parent chain.

Set 1
Target: Interferon regulatory factor 5, full length, phosphomimetic (IRF5, Homo sapiens, UniProt Q13568-2, residues 1-514, K96S/S451D/S453D/S456D/S462D)
Method: protein-binding microarray
Form: double-stranded DNA, one strand shown
Matrix: in vitro
Tested at: 250 nM
Notes: 60-bp whole probe
Together with: salmon DNA 0.4 mg/ml
Baseline: random background probes
Direction: higher = stronger binding
Shared flanks, not repeated: GCCTAGCAC … GTCTTGATTCGCTTGACGCTGCTG
Sequence	log fluorescence [z-score]
TTAGATTTCGAGACTGGATTAGTGCTA	1.81
TTATATATCAGTATCGATTAGTGCTAG	7.72
TTAGATATCAGTAACGATTAGTGCTAG	1.28
TTAGATTTCGGGACTGGATTCGTGCTA	2.61
TTAGATCTGAGTCTCGATTAGTGCTAG	0.692
CTCTGTCCCCCTTTTATATTGTGCTAG	-0.0632
GACGTTATCGGGTATCGGGACGTGCTA	3.45
TCATATCCCTAATCTCAGACTGTGCTA	0.518
TTAGATCTCAGGCTCGATTAGTGCTAG	-0.333
TCAGTTTTCATTATTGTACTGTGCTAG	2.82
GACGATACCAGACTGGAGACGTGCTAG	0.467
GACGGGCTGGGTTTCGGGACGTGCTAG	2
GACGATATCAGTCTCAAGACGTGCTAG	1.22
TCATTTTTCTAGTCCAGACTGTGCTAG	0.939
GACGAACTGGGGTTTCGGGACGTGCTA	1.68
TTAGGTATCGGACTGCGTTAGTGCTAG	1.51
GACGGTTTCAGGTTTCGGGACGTGCTA	4.56
TTATATTTCAGACTGGATTAGTGCTAG	0.775

Set 2
Target: CCNB3, cyclin fold, Cln2 fusion (human)
Method: yeast growth competition, sequencing
Matrix: yeast
Notes: weak parent motif
Baseline: not given
Direction: higher = stronger binding
Starting sequence: RB1 docking peptide (human); PKPLKKLRFDIEG; partner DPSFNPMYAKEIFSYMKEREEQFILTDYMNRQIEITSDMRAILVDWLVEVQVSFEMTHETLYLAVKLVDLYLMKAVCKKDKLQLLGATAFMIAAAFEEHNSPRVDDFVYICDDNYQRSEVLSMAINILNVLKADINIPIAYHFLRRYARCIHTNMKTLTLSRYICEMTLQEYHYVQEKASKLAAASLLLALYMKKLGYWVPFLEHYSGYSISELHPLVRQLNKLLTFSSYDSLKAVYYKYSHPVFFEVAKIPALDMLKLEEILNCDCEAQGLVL
Change	normalised enrichment score
G13T	-0.588
L7Y	-0.124
F9N	0.549
L7P	0.252
L4E	0.05
G13L	0.223
P3E	0.429
L7R	0.461
P3T	-0.123
E12L	0.306
R8Q	0.195
K5T	0.0886
L4A	0.291

Set 3
Target: ABI1, truncated, D143A, DHFR fusion (Arabidopsis thaliana)
Method: DHFR PCA, deep sequencing
Matrix: yeast
Notes: methotrexate growth selection, single substitutions
Together with: (+)-ABA 710 µM
Baseline: wild-type fitted maximum
Direction: higher = stronger binding
Starting sequence: PYL1, truncated, DHFR fusion (Arabidopsis thaliana); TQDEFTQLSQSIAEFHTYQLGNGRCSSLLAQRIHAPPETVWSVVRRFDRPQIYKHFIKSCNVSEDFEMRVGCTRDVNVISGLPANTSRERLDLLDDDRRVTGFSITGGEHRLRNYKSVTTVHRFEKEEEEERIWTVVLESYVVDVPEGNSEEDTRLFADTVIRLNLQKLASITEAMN
Change	relative binding score
R32F	83.9%
D159R	64%
E127G	110%
T6M	107%
K116L	47.1%
Y141S	-4.57%
N77L	100%
R74T	-6.25%
C60G	30.3%
D48W	60.5%
F66P	92.1%
A175E	100%
R90E	95.1%
T135D	-1.29%
V44K	54.1%
L28W	91.8%
K116S	107%

Set 4
Target: Prothrombin, mature alpha-thrombin (F2, Homo sapiens, UniProt P00734)
Method: aptamer microarray, sandwich
Form: DNA with 2'F-ANA
Matrix: in vitro
Tested at: 200 nM
Notes: whole 15-mer aptamer, many near background
Together with: Cy3 exosite-II aptamer, 400 nM
Direction: higher = stronger binding
Sequence: GGTTGGTGTGGTTGG
Modification	mean fluorescence intensity
2'F-ANA at 2 4 7 10 11 12 13	98.5 a.u.
2'F-ANA at 1 4 5 11 12	80.2 a.u.
2'F-ANA at 1 2 3 4 10 12 13	67.9 a.u.
2'F-ANA at 2 3 4 5 9 10 11 13 14 15	53.6 a.u.
2'F-ANA at 2 3 4 5 10 11 14 15	46.8 a.u.
2'F-ANA at 2 7 8 11 14 15	202 a.u.
2'F-ANA at 1 2 3 4 5 9 11 14 15	44.4 a.u.
2'F-ANA at 1 2 3 4 6 8 10 12 13 15	63.8 a.u.
2'F-ANA at 1 2 4 5 7 8 11 13 14	123 a.u.
2'F-ANA at 1 2 4 6 8 9 13 14 15	47 a.u.
2'F-ANA at 2 3 4 7 8 9 10 13 14 15	182 a.u.
2'F-ANA at 2 5 7 8 10	47.4 a.u.
2'F-ANA at 1 2 5 7 8 9 10 12	47.7 a.u.
2'F-ANA at 1 2 4 6 8 9 13 15	77.6 a.u.
2'F-ANA at 2 4 6 8	393 a.u.
2'F-ANA at 1 2 3 7 10 11 13 15	78.4 a.u.
2'F-ANA at 3 4 5 6 8 9 11 13 15	73.6 a.u.
2'F-ANA at 1 3 5 6 7 8 9 10 11 12 13 15	75.8 a.u.
2'F-ANA at 2 8 9 15	470 a.u.
2'F-ANA at 2 3 4 5 8 9 10 11	50.9 a.u.
2'F-ANA at 1 5 10 11 13 14	48.3 a.u.
2'F-ANA at 3 6 8 9 10 12 14 15	355 a.u.
2'F-ANA at 2 3 4 6 8 10 15	211 a.u.
2'F-ANA at 1 2 3 7 11 14	71.9 a.u.
2'F-ANA at 1 3 8 9 10 11	82.7 a.u.

Set 5
Target: RNA binding protein fox-1 homolog 2, RRM domain, GST-SBP tag (RBFOX2, Homo sapiens, UniProt O43251-10, residues 100-194)
Method: RNA Bind-n-Seq
Form: RNA
Matrix: in vitro
Tested at: 365 nM
Notes: natural RNA segment, single round, ends assumed
Baseline: no-protein control
Direction: higher = stronger binding
Shared flanks, not repeated: GGGAGUUCUACAGUCCGACGAUC … UGGAAUUCUCGGGUGCCAA
Target sequence (chain): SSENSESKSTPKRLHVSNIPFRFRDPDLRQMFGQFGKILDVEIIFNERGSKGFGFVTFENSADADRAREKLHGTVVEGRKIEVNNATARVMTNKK
Sequence	RBNS enrichment (R)
UAGAUGAAAAAGUCUUAUUCAGAUGUAUCACAUUCAUUUUACAUUACCCACCUAUUGUCGCAUGGUAGAAUAGUUUUUUGUCUCUGAAUAUGUGAAUAACUUGACUUGCA	8.98
AGAUUUACCUUUUCUGUUGUACGUAAAGCUUAAAUUGCUUUUGUUGUGACUUUUUAGCCAGUGACUUUUUCUGAGCUUUUCAUGGAAGUGGCAGUGAAAAAUAUGUUGAG	0.398
GUGAGGGUUUCAGUACAAAUGCUGCUGUCUAUUUCUGUGCACUUAACAAUGGAACCCAAACAGAAGGAAGAAAGCCUUGAUACCAAAAUUGGGAGUGAGGAUGUGUCCAU	0.485
CUUUCCUUUGUUUCCUUGGGUGAAUGCAGGAGCAGCAGUGGCUGCCCUUCCCACCUGGACAGUGGUGUGUGUAGAAAGCCAGCUGGAUGUUUGUGGUGGGGCCUCAUGGU	7.95
CCAGGUUGGAGCUUAAAUUGCUGUUGGCUCCUGCCUGGUGGAACAAGGGGGUCAUAGAAACCAGGGCUGAUGGGCACCCCCCAGCCCCUGGGAGCUCUGCUCAUGACCGC	0.408
ACGGAAUCAUUUUAAUGUGUUCCUCAGAACGUAUGUAUUGACUUCUACAAUAAAUGACUGGCUGGUGCUUUGGUGUGCUGUUCAUUGAGUGAAUGCUAGAAGCCACACUG	0.431
GAUGCCCCCUCCCAAGUCCACCAAUGUACCACGUUGCUGACACAGCCUUCAUUUUUAACUCAAAUUGAUGCUCAGUAAAGGUCAAUGACAAUUUGUUCAAGGAAGUUCAU	0.515
CCAUAGUUUUUAAUCCCAAAGUUAUUUAAACAUCAGUAAGACAAGGUACCACUUCAUACAGUGAAAAGUGGAAUCUACAGAUAUAAAGCAGUUGAGGAAAAAAGACAACA	0.367
GCAAGCUCAUCCGCACAGAAGAGGGAAGAGGGAGAUGCGUGGGGAAACUGAGUGAGUCGGAUUCCUCCAGGCCAGGUCUUCCCAGAACAGAGUCAGCCUCUAGUAGACCC	0.428
UACAAGUACAUUUAACAGAUCAUUUAUAAAGCAGGAGUCCAUUUUAACACUUACCGACUUUUUUUGGUUUGGAAACAUAUUACCACGUCUUAAUAGGAUGGUGCCCAUAU	0.627
UCUUUAAACAGUUCUGAUGUAAUUUCUCAACAAAAUGUGGCUUUUAGCCUGUCAGUGAUCUAUUGGACCAAACCUUCUGCACACUCGGCCAGUUCCCUCUCCAAUGUCCG	0.232
UCAGGUACAUUAAUUGCAUAUUAUUUUGGGAAAGAUGAGUCCUAUACGUGGCAAUUUUUCAAUGUCAUCUGAAGCCAGCAUUAUCUUCCAAAGAAAUCGAUCUUUUUUUU	1.11

Some of these lines once more (set 4):
Modification	mean fluorescence intensity
2'F-ANA at 1 4 5 11 12	80.2 a.u.
2'F-ANA at 1 3 8 9 10 11	82.7 a.u.
2'F-ANA at 1 2 3 4 10 12 13	67.9 a.u.
2'F-ANA at 1 5 10 11 13 14	48.3 a.u.
2'F-ANA at 2 4 6 8	393 a.u.
2'F-ANA at 2 3 4 6 8 10 15	211 a.u.
2'F-ANA at 2 5 7 8 10	47.4 a.u.
2'F-ANA at 1 2 4 5 7 8 11 13 14	123 a.u.
2'F-ANA at 2 8 9 15	470 a.u.
2'F-ANA at 1 2 4 6 8 9 13 14 15	47 a.u.
2'F-ANA at 2 3 4 5 8 9 10 11	50.9 a.u.
2'F-ANA at 2 3 4 7 8 9 10 13 14 15	182 a.u.
